Measured values from different studies.
Each line is one published result; not all experiments were run side by side. ± marks the error that the study gave.

| Compound | test | system | setting | how to read | endpoint | result |
| --- | --- | --- | --- | --- | --- | --- |
| CC(=O)[C@]12NC(C)(C)C[C@@]1(C)C(=O)C1=C2c2c(c3c4n2C(C)(C)CC2=C4[C@@]4(CC(C)(C)N[C@@](C)(C4)C2=O)CC3(C)C)C(=O)C(C)(C)N1 (racemic) | acetic acid-induced writhing | mouse | intraperitoneal, 5 mg/kg, 0.5 h, writhes counted over 30 min |  | inhibition | 93.1 ± 0.8% |
| O=C(/C=C\n1cnc(-c2cc(C(F)(F)F)cc(C(F)(F)F)c2)n1)N1CC(F)(F)C1 |  | mice, MOG35-55 EAE | oral, 75 mg/kg, 12 days, from hindlimb paralysis | baseline: vehicle, decrease | cumulative disease score | 60 ± 4.72% |
| Cc1c(C(=O)Nc2ccn(C)n2)ncn1Cc1cccc(C(F)(F)F)c1 | qPCR | human αS transgenic mouse, cortex | dose not given, 120 days | baseline: placebo | SNCA mRNA level | no effect |
| CC/C=C\C/C=C\C/C=C\C/C=C\C/C=C\CCCCOC(CC)C(=O)O (stereo not drawn) |  | APOE*3Leiden.CETP mice, high-fat/cholesterol diet | dose not given, 20 weeks | baseline: control | hepatic GSSG | decreased |
| COc1c2c(cc3oc(COC4OC(CO)C(O)C(O)C4O)cc(=O)c13)OC(C(C)(C)O)C2 (stereo not drawn) | ear edema weight | mouse, xylene ear edema | oral, 1 mg/kg | baseline: vehicle | inhibition | 16% |
| COc1ccc(C2CC(c3ccc(C)cc3)=Nc3ccccc3S2)cc1 (stereo not drawn) |  | Wistar rat, STZ-induced diabetes, serum | oral, 20 mg/kg once daily, 28 days |  | AST (SGOT) | 21.8 ± 2.16 IU/L |
| COc1ccc(OC)c(C(=Cc2ccc(O)c(OC)c2)C(=O)NCCc2ccc(O)cc2)c1 | item: CD68, GFAP | C57BL mice, MPTP/p Parkinson model, midbrain | 75 mg/kg, 8 weeks | baseline: MPTP/p vehicle | glial activation | inhibited |
| C[N+](C)(CF)CC(=O)O |  | human platelet-rich plasma | 20 µM, together with: ADP 2 µM |  | platelet aggregation | no effect |
| Cc1cc2c(cc1C1(c3ncc(C(=O)O)cn3)CC1)C(C)(C)CCC2(C)C | RNA sequencing, item: Ifit3 mRNA | rat, brain | dose not given, 24 h, single dose | baseline: vehicle | log2 fold change | -0.083 |
| O=C1O/C(=C\c2cc(F)ccc2OCCN2CCOCC2)c2cc(Cc3cccc(F)c3)[nH]c(=O)c21 | Western blot | rat, bleomycin-induced pulmonary fibrosis, lung | intraperitoneal, 5.0 mg/kg twice daily, 28 days |  | vimentin level | decreased |
| CCCOC(=O)Cc1c(C)n(C(=O)c2ccc(Cl)cc2)c2ccc(OC)cc12 | hot plate test | BALB/c mice | 75 mg/kg, 0 min |  | latency of nociceptive response | 10.4 ± 0.36 s |
| CCCS(=O)(=O)Nc1c(F)ccc(C(=O)c2n[nH]c3ncc(-c4ccncc4)cc23)c1F | CT | pig, 80% hepatectomy | intravenous, 5 mg/kg every 12 h, 43 h after hepatectomy |  | regenerated liver volume | 252 ± 13.6 mL |
| COc1ccc(C2CC(c3ccc(C)cc3)=Nc3ccccc3S2)cc1OC (stereo not drawn) |  | Wistar rat, STZ-induced diabetes | oral, 20 mg/kg once daily, day 28 |  | body weight | 182 ± 4.66 g |
| COc1ccc2c(c1)c(CC(=O)OCC(=O)OC(C)(C)C)c(C)n2C(=O)c1ccc(Cl)cc1 | hot plate test | BALB/c mice | 50 mg/kg, 120 min |  | latency of nociceptive response | 13.7 ± 0.97 s |
| CCCN(c1ccc(C(=O)NCCC(=O)O)cc1)S(=O)(=O)c1cc(C)c(-c2ccc(C(C)(C)C)cc2)c(C)c1 |  | HFD-induced obese mouse | oral, 50 mg/kg once daily, weeks 3 and 4 |  | non-fasting blood glucose | decreased |
| Cc1nc(C)c(C=[N+]([O-])C(C)(C)C)nc1C | Western blot, item: HO-1 | mouse, MPTP model, substantia nigra cytosol | 90 mg/kg |  | protein level increase | 48.6% |
| C[C@H](NC(=O)COC(=O)[C@H](C)NC(=O)CO)C(=O)O |  | water | pH 8, 37 °C |  | depolymerization rate constant | 31.1 h⁻¹ |
| CC(C)c1cnc(-c2cc(Cl)ccc2F)cc1Nc1ccncc1C(=O)NC(CO)CO | SMAD2 phosphorylation | mouse, 4T1 tumour, tumour | 30 mg/kg twice daily then once, 0 to 8 h after last dose, normalized average |  | inhibition | 60% |
| Cc1sc(-c2ccc(C(F)(F)F)cc2)nc1-c1nn[nH]c1C#N |  | ZDF rat | dose not given, 6 weeks, together with: sitagliptin 10 mg/kg/day | baseline: vehicle | HbA1c change reduction | 50.5% |
| CC(C)n1cnc(C[C@H](NC(=O)c2nccnc2N)C(=O)N2CCC[C@H]2C(N)=O)c1 |  | Swiss albino mice | iv, 10 µmol/kg, together with: pentobarbital 50 mg/kg ip |  | sleeping time | 67.6 ± 6.1 min |

| Compound | test | system | setting | how to read | endpoint | result |
| --- | --- | --- | --- | --- | --- | --- |
| CN1Cc2c(Cl)cc(Cl)cc2C(c2ccc(S(=O)(=O)NCCOCCOCCNC(=O)C(O)C(O)C(=O)NCCOCCOCCNS(=O)(=O)c3ccc(C4CN(C)Cc5c(Cl)cc(Cl)cc54)cc3)cc2)C1 (stereo not drawn) |  | Sprague Dawley rats | oral, 3 mg/kg, 16 h | higher = more watery | stool form score | 2.5 |
| CC[C@H](C)[C@@H]1NC(=O)[C@H](Cc2ccc(O)cc2)NC(=O)[C@@H](N)CSSC[C@@H](C(=O)NCC(=O)N[C@@H](CCCCNC(=O)COCCOCCNC(=O)COCCOCCNC(=O)CC[C@H](NC(=O)CC[C@H](NC(=O)CCCCCCCCCCCCCCCCC(=O)O)C(=O)O)C(=O)O)C(=O)NCC(N)=O)NC(=O)[C@H](CC(N)=O)NC(=O)[C@H](CCC(N)=O)NC1=O | RT-PCR | C57BL/6 mice, diet-induced obese, liver | subcutaneous, dose not given, 14 days |  | FGF21 mRNA level | increased |
| CCOP(=O)(CC(=O)Nc1ccc(S(=O)(=O)N(CC(N)=O)c2ccc(N(CC(N)=O)S(=O)(=O)c3ccc(OC)cc3)c3ccccc23)cc1)OCC | item: HO-1, NQO1 and GPX4 | APP/PS1 mice, hippocampus and frontal cortex | 40 mg/kg | baseline: untreated APP/PS1 mice | mRNA level | increased |
| CC[C@H]1[C@@H](O)[C@@H]2[C@H](CC[C@]3(C)[C@@H]([C@H](C)CCOS(=O)(=O)[O-])CC[C@@H]23)[C@@]2(C)CC[C@@H](O)C[C@@H]12.[Na+] | EchoMRI | ob/ob NASH mouse model | oral, 3 mg/kg once daily, 8 weeks |  | whole-body fat mass | 21 ± 0.7 g |
| C=C(c1cc(F)c(C(=O)O)c(F)c1)c1cc2c(cc1C)C(C)(C)CCC2(C)C | RNA sequencing, item: Abca1 mRNA | rat, brain | dose not given, 24 h, single dose | baseline: vehicle | log2 fold change | 0.17 |
| C=CC(=O)N1C[C@H](C)N(c2nc(OC[C@@]34CCCN3C[C@H](F)C4)nc3c(F)c(-c4ccc(F)c5sc(N)c(C#N)c45)c(C(F)(F)F)cc23)C[C@H]1C | tumour growth | mouse, NCI-H358 xenograft | oral, once daily, 28 days |  | ED90 | 1.6 mg/kg |
| Cc1cc(O)c(C=O)c2c1C(=O)Oc1c(CO)c(O)c3c(c1O2)C(O)OC3=O (stereo not drawn) |  | rat male, streptozotocin diabetic | 10 mg/kg, 9 weeks |  | body weight | 179 ± 5.91 g |
| C=C(c1ccc(C(=O)O)c(F)c1)c1cc2c(cc1C)C(C)(C)C=CC2(C)C | RNA sequencing, item: Sycp2 | rat, brain | dose not given, 24 h | baseline: vehicle | log2 fold change | -0.28 |
| COC(=O)[C@H](CSSC(C)(C)[C@H](NC(=O)[C@H](CCC(=O)NC[C@H](O)[C@@H](O)[C@H](O)[C@H](O)CO)NC(=O)[C@H](CCC(=O)O)NC(=O)[C@H](CCC(=O)NC[C@H](O)[C@@H](O)[C@H](O)[C@H](O)CO)NC(=O)[C@H](CCC(=O)O)NC(=O)[C@H](CCC(=O)NC[C@H](O)[C@@H](O)[C@H](O)[C@H](O)CO)NC(=O)CC[C@H](NC(=O)c1ccc(NCc2cnc3nc(N)[nH]c(=O)c3n2)cc1)C(=O)O)C(=O)O)NC(=O)CC[C@H](NC(=O)c1ccc(NCc2cnc3nc(N)nc(N)c3n2)cc1)C(=O)O | item: pannus formation | Lewis rat, adjuvant-induced arthritis | 500 nmol/kg twice weekly × 2 | direction not given | histological score decrease | 87% |
| CN(C)C(=O)c1ccnc(N2Cc3cn(Cc4ccc(F)cc4F)nc3C2)n1 | item: SMI32 | cuprizone-fed mice, corpus callosum | dose not given |  | neurofilament-H intensity | no effect |
| Cc1cc(=O)[nH]c2ccc(OCCCC(=O)N3CCN(C)CC3)cc12 |  | rat, isolated spontaneously beating atria | 100 µM | baseline: baseline | contraction force increase | 15 ± 3% |
| CCOC(=O)c1cc2c(N)c(C(=O)OC)sc2nc1C |  | Sprague-Dawley rats | subcutaneous, 25, 50, 100 mg/kg | baseline: vehicle | urinary osmolality | decreased |
| O=C(Nc1nc2cc(C(F)(F)F)cc(NC3CC3)n2n1)c1cccnc1 |  | mouse, MOG-induced EAE | oral gavage, 30 mg/kg once daily | baseline: vehicle | disease incidence | no effect |
| NS(=O)(=O)NCC(F)(F)c1ccccc1F | 6 Hz seizures | mouse | intraperitoneal |  | ED50 | 19 mg/kg |
| O=C(NCCN1C(=O)C=CC1=O)[O][Pt-2]12([O]C(=O)NCCN3C(=O)C=CC3=O)([NH2+][C@@H]3CCCC[C@H]3[NH2+]1)[O]C(=O)C(=O)[O]2 | H&E histology | BALB/c mouse CT26 allograft, tumour | dose not given, day 12 |  | apoptotic cells | ~40% |
| CCN(CC)C(=O)C1CCCN(C(=O)Nc2ccc3nc(-c4ccco4)c(-c4ccco4)nc3c2)C1 (stereo not drawn) | cell proliferation, inhibitor, MTT | spleen cells, mouse | 72 h, together with: concanavalin A 5 µg/mL |  | IC50 | 4.32 µM |
| CCC1CC2C(C)=CC3C(=O)CCCC3C=CC(C)=CC2C(=O)O1 (stereo not drawn) | dot blot | 5XFAD transgenic mouse, cortex | oral, 30 mg/kg/day three times per week, 1 month | baseline: vehicle | soluble oligomeric Aβ reduction | 23% |
| CC12CC(O)C3CC1(OC1OC(CO)C(O)C(O)C1O)C3(COC(=O)c1ccccc1)C(=O)O2 (stereo not drawn) |  | pseudo-germ-free mice, reserpine model | 14 mg/kg, 7 days, scale up to 4 | direction not given | ptosis score | 2.7 |
| Cc1c(C)c(C)[c-](C)c1C.O=C1c2cccc[n+]2[Ir]([Cl])[N]1CCCCCCCCCC[P+](c1ccccc1)(c1ccccc1)c1ccc2ccc3cccc4ccc1c2c34.[Br-] | 4-hydroxynonenal reduction | PBS/DMSO | 24 h, 37 °C, 1 mol% catalyst, together with: excess sodium formate |  | yield | 21% |

For quick reference, copied from above:
| Compound | test | system | setting | how to read | endpoint | result |
| --- | --- | --- | --- | --- | --- | --- |
| COc1ccc(C2CC(c3ccc(C)cc3)=Nc3ccccc3S2)cc1 (stereo not drawn) |  | Wistar rat, STZ-induced diabetes, serum | oral, 20 mg/kg once daily, 28 days |  | AST (SGOT) | 21.8 ± 2.16 IU/L |
| Cc1cc2c(cc1C1(c3ncc(C(=O)O)cn3)CC1)C(C)(C)CCC2(C)C | RNA sequencing, item: Ifit3 mRNA | rat, brain | dose not given, 24 h, single dose | baseline: vehicle | log2 fold change | -0.083 |
| C=C(c1cc(F)c(C(=O)O)c(F)c1)c1cc2c(cc1C)C(C)(C)CCC2(C)C | RNA sequencing, item: Abca1 mRNA | rat, brain | dose not given, 24 h, single dose | baseline: vehicle | log2 fold change | 0.17 |
